Measurements gathered from unrelated publications.
Every numbered part comes from another study and shows a few of its results, in no order.
Sequence of UniProt Q8IWQ3 (whole entry, looked up): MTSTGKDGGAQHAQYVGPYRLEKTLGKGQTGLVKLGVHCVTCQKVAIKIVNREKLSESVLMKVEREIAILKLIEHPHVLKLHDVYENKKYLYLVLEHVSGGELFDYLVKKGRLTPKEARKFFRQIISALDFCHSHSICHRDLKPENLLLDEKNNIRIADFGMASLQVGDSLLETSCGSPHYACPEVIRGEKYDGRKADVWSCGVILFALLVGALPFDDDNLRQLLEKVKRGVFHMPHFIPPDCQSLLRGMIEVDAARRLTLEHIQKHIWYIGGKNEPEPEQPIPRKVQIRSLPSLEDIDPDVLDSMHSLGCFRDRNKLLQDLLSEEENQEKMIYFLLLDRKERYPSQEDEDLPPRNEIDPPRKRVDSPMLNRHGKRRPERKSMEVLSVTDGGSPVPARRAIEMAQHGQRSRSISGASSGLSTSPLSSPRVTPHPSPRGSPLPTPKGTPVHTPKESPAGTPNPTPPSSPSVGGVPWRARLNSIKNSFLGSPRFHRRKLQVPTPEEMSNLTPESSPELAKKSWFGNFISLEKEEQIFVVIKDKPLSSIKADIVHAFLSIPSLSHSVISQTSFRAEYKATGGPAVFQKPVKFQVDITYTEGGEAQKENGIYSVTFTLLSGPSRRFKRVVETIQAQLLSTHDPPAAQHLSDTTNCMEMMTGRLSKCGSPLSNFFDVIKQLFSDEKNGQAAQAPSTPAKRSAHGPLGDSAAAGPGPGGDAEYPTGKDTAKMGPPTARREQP
Sequence of UniProt Q9BX84 (whole entry, looked up): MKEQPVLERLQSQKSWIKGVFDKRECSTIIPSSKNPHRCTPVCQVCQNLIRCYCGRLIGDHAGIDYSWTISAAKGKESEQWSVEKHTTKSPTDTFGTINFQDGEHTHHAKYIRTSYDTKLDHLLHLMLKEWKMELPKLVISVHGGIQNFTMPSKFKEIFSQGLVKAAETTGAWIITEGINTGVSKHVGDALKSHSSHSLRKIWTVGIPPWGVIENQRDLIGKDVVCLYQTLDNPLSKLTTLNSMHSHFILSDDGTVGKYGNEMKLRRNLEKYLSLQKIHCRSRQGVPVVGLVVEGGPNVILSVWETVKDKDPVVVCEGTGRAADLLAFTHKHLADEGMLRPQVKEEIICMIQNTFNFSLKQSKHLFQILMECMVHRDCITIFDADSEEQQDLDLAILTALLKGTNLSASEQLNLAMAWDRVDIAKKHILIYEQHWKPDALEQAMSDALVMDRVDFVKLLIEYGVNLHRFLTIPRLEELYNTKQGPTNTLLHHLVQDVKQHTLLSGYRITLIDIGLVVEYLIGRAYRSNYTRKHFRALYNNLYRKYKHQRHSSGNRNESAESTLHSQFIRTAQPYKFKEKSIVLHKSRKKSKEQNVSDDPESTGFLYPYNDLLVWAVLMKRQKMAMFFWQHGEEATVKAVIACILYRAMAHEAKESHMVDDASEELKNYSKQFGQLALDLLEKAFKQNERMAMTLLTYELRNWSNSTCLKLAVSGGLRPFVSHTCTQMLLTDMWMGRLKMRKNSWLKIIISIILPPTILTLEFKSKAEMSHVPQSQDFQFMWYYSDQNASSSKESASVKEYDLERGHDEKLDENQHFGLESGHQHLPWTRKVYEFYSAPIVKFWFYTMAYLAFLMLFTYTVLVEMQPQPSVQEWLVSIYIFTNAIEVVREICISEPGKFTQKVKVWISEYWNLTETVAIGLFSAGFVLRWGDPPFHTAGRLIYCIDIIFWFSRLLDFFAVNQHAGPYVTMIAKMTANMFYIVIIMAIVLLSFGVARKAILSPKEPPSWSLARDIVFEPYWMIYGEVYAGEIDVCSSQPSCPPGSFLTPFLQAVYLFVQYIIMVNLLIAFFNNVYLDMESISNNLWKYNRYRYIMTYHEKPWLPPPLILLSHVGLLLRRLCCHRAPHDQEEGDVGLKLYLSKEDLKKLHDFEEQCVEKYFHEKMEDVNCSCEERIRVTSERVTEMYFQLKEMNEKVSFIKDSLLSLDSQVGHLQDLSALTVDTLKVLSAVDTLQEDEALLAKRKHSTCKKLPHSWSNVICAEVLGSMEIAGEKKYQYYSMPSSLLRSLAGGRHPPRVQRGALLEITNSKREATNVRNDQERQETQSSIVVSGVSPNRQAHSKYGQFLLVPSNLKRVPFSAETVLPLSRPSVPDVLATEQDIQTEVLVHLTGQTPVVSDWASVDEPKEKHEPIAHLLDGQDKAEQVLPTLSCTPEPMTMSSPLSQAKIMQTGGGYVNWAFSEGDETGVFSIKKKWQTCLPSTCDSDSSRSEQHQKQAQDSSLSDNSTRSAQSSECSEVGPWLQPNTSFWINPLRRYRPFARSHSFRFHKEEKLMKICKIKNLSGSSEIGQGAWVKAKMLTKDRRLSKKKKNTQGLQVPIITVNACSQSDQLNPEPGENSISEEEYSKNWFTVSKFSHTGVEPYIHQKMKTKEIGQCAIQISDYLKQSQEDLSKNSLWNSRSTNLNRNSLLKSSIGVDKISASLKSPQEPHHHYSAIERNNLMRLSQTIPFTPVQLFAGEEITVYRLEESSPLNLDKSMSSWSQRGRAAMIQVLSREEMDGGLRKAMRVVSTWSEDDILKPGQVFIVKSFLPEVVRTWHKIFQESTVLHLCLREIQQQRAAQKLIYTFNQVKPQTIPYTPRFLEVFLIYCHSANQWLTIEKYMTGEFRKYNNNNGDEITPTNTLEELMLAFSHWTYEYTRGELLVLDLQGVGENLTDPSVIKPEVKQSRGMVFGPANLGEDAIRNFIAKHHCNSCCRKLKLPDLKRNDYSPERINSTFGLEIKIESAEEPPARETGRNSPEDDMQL
Sequence of UniProt Q15835 (whole entry, looked up): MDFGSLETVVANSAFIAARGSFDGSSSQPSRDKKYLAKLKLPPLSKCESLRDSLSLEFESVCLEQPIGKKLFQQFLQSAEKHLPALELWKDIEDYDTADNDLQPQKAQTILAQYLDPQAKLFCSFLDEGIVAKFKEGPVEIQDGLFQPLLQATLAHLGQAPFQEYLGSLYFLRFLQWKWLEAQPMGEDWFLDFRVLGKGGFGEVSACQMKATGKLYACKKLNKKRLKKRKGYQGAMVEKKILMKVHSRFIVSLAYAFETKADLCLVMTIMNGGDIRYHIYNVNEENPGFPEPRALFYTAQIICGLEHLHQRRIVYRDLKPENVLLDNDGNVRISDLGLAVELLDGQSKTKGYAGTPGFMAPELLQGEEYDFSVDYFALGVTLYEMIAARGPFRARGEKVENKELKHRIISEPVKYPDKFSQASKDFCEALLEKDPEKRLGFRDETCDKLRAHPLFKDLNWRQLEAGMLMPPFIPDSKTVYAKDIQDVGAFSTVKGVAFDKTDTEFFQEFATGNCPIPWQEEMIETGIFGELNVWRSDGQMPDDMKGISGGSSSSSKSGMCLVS
Sequence of UniProt Q02156 (whole entry, looked up): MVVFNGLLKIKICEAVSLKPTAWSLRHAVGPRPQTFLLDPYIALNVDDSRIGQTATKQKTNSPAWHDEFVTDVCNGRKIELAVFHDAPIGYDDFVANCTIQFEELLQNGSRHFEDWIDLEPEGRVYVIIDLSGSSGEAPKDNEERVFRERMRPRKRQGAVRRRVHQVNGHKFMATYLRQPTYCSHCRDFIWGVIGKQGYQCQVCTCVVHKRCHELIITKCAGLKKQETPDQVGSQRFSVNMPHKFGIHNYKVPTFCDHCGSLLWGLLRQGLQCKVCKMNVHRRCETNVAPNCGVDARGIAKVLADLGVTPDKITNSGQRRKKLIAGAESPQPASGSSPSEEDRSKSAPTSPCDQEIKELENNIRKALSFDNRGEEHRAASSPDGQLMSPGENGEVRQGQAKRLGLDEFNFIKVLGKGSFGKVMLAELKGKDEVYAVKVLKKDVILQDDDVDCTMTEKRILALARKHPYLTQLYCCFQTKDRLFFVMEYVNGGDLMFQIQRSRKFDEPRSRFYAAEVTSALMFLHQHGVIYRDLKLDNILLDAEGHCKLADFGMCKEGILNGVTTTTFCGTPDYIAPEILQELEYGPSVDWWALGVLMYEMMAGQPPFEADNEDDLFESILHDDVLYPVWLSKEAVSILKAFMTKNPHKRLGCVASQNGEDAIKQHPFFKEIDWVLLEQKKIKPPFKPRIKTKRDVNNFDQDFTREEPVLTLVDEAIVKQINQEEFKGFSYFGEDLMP

Series 1
Species: mouse
Sample: microsomes or S9
Concentration: 2 µM
Time: 0.5 h
Measurement: remaining compound
Cc1cc2c(cc1C(=O)N=C(N)N)C(Br)=CC(C)(C)O2: 38.5%
Cc1ccc(NC(=O)N2Cc3c(sc4c3CCCC4)-n3cccc3C2c2cccs2)cc1Cl (stereo not shown): 46.6%
Cn1c(-c2c(N)n(C3CCCC3)c3nc4ccccc4nc23)nc2ccccc21: > 99%
c1ccc(-c2cc3cc(-c4ccccc4)[nH]c3cn2)cc1: 4.48%
Cc1nc2c(c(=O)n1C)CN(C(=O)[C@@H]1CCCN1C1CCN(C)CC1)C2: 61.8%

Series 2
Compound: C=CCc1ccc(O)c(-c2ccc(O)c(CC=C)c2)c1
Effect on: chloride current
Method: whole-cell voltage clamp
Measurement: IC50
ANO1 del476-501/F627A: Anoctamin-1 (ANO1, Homo sapiens, UniProt Q5XXA6, del476-501/F627A)
Sequence of UniProt Q5XXA6 (whole entry, unmodified, looked up): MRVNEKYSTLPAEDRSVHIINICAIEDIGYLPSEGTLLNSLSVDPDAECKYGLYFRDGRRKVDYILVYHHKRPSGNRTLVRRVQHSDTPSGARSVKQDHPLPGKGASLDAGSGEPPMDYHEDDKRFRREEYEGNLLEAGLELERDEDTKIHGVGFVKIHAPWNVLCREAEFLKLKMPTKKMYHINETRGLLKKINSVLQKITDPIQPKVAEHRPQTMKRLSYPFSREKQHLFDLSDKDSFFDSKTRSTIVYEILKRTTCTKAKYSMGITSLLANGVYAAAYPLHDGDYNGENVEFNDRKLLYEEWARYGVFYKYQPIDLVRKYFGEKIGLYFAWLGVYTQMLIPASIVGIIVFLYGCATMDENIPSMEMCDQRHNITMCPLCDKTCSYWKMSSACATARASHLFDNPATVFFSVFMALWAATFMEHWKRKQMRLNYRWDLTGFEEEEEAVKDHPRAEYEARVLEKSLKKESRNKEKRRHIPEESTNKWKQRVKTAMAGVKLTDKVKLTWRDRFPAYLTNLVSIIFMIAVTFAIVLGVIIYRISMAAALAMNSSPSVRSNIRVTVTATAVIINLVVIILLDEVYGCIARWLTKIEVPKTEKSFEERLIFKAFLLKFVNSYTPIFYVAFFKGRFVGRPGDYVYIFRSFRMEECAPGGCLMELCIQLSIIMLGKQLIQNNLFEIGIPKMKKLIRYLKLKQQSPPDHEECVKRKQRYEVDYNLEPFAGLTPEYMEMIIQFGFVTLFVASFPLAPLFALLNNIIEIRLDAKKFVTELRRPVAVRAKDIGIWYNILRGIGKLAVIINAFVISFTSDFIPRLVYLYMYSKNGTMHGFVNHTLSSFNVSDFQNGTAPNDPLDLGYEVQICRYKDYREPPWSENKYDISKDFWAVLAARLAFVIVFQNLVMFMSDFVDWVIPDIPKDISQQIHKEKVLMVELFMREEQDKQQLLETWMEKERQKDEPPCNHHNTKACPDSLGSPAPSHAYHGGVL
ANO1 del476-501/F627A; membrane voltage 60 mV: 6.49 µM
Anoctamin-1 (ANO1, Homo sapiens, UniProt Q5XXA6, del476-501/F623A); membrane voltage 100 mV: 8.81 µM
Anoctamin-1 (ANO1, Homo sapiens, UniProt Q5XXA6, del476-501/R561A); membrane voltage -20 mV: 4.63 µM
Anoctamin-1 (ANO1, Homo sapiens, UniProt Q5XXA6, D383A/del476-501); membrane voltage -80 mV: 15.8 µM
Anoctamin-1 (ANO1, Homo sapiens, UniProt Q5XXA6, del476-501); membrane voltage 20 mV, with: 300 nM Ca2+: 3.14 µM
ANO1 del476-501/F627A; membrane voltage -40 mV: 5.76 µM

Series 3
SMILES: O=C1NC(c2ccccn2)Sc2ccccc21 (stereo not shown)
Concentration: 1 µM
Measurement: remaining binding
BRSK2 (Homo sapiens, UniProt Q8IWQ3); cell-free assay, competition with immobilised ligand: 100%
FLT3 (Homo sapiens, UniProt P36888, F691L/ITD); cell-free assay, competition with immobilised ligand: 100%
ULK2 (Homo sapiens, UniProt Q8IYT8); cell-free assay, competition with immobilised ligand: 76%
KIT (Homo sapiens, UniProt P10721, V559D); cell-free assay, competition with immobilised ligand: 100%
MUSK (Homo sapiens, UniProt O15146); cell-free assay, competition with immobilised ligand: 90%
GRK1 (Homo sapiens, UniProt Q15835); cell-free assay, competition with immobilised ligand: 81%
TRPM6 (Homo sapiens, UniProt Q9BX84); cell-free assay, competition with immobilised ligand: 64%
LRRK2 (Homo sapiens, UniProt Q5S007); cell-free assay, competition with immobilised ligand: 93%
PRKCE (Homo sapiens, UniProt Q02156); cell-free assay, competition with immobilised ligand: 96%
CDC42BPG (Homo sapiens, UniProt Q6DT37); competition binding: 80%
ACVRL1 (Homo sapiens, UniProt P37023); cell-free assay, competition with immobilised ligand: 70%
MYLK3 (Homo sapiens, UniProt Q32MK0); cell-free assay, competition with immobilised ligand: 100%
MAP3K12 (Homo sapiens, UniProt Q12852); cell-free assay, competition with immobilised ligand: 100%
PIP4K2C (Homo sapiens, UniProt Q8TBX8); cell-free assay, competition with immobilised ligand: 100%
DCLK1 (Homo sapiens, UniProt O15075); cell-free assay, competition with immobilised ligand: 77%

Series 4
Organism: Sarcocystis neurona
Effect on: parasite activity
Concentration: 10 µM
Time: 96 h
Measurement: activity class
NS(=O)(=O)c1cc(C(=O)O)c(NCc2ccco2)cc1Cl: inactive
O=c1[nH]cc(F)c(=O)[nH]1: active
CCOC(=O)[C@@]1(CCCCCCOc2ccc(Cl)cc2)CO1: inactive
CC(=O)OCC(=O)[C@@]1(O)CC[C@H]2[C@@H]3CCC4=CC(=O)CC[C@]4(C)[C@H]3[C@@H](O)C[C@@]21C: inactive
CO[C@H]1O[C@@H]2O[C@@]3(C)CC[C@H]4[C@H](C)CC[C@@H]([C@H]1C)[C@@]24OO3: inactive
